Published values gathered from unrelated publications.
Every numbered part comes from another study and shows a few of its results, in no order.

Block 1 — method: competition protein-binding microarray; molecule type: double-stranded DNA, one strand shown; matrix: in vitro; concentration: 2 µM; together with: Pho4 competitor, 0.05 µM; reading: higher = stronger binding; measurement: fluorescence intensity
Target: Centromere-binding protein 1, full length, His-tagged (CBF1, Saccharomyces cerevisiae, UniProt P17106, residues 1-351)
Sequence of UniProt P17106 (whole entry, looked up): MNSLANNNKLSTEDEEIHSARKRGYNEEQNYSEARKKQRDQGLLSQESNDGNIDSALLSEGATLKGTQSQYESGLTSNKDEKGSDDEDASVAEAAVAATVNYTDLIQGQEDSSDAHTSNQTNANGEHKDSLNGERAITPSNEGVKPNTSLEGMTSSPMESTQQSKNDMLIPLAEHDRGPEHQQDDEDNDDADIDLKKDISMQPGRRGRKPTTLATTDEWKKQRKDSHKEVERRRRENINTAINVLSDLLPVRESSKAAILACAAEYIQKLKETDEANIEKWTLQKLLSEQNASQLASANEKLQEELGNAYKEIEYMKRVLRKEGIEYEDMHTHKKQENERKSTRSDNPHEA
Notes: whole 60-bp probe, lowest competitor level
GCGTCGAAATCTAATTTTGTGACAGTGTAGTTCTTAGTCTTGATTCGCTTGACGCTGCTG: 88.1 a.u.
TCCAGTGAAGCGCCCCTCGTGCTTTGGAAATCCCTGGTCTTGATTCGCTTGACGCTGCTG: 154 a.u.
CAGTAACAGGTACAGCACGTGCAAAATCAGGATGACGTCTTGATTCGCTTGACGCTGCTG: 1830 a.u.
AAATTACTAAGTTGGGATGTGGGTGACGCCGTATGAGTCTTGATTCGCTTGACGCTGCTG: 68.3 a.u.
CTTCGTTCCTTCCGTCACATGATGAGATAGAGGAATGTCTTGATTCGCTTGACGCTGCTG: 1340 a.u.
TTTTACATGAAACTGCGCGTGCCAGAAATGTTAAGAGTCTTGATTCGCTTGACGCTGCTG: 126 a.u.
TTTTCTTTTACCGGCCACGTGAAATGATGATAAAAAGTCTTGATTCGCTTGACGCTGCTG: 1450 a.u.
CTTCTGTAAATTTGTATAGTGGGTGGACGCGCCCCGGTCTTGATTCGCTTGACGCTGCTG: 72 a.u.
TACAAATTGGTCCGTCACGTTTCTTTTGTTGACTGTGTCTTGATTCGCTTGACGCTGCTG: 591 a.u.
GGGCTTCAGAAAAAAGGCGTGCGATGTGTAGATGTAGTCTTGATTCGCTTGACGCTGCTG: 79.5 a.u.
CCCGCCCCCGGCCAGCACGCGCCTCTGCCTGAGACCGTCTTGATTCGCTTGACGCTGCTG: 72.8 a.u.
GTACTGCACCATTTGACCGTGATGGACACCATGGAGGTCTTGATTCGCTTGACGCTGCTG: 78.3 a.u.
TCTTATATTGCAAAGCACGTTTCATCAAGACCTTTAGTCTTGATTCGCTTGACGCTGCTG: 160 a.u.
CCTTGAATGATAAAACACGTTAAAGTTTCTAGATCAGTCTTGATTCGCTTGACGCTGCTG: 93.1 a.u.
CTTCTGTAAATTTGAGAGGTGGGTGGACGCGCCCCGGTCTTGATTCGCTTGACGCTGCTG: 85.1 a.u.
TTAACATAATTAAAGCACGCAGCGATTGGGTATAATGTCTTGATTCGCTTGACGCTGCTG: 77 a.u.
TTCCTTTGGATTTTCCGCGTGTGTTTTCTGACCGTTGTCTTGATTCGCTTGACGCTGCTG: 79.6 a.u.
AAGTTGAAGAAAAGCCAGGTGACGGAGGTGCCCTAGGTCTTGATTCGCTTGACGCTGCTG: 68.2 a.u.
CTTTCCCGATCTTGTCGAGTGGGTGTAGCACATTTGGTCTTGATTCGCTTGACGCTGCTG: 59.1 a.u.
GCCACTTTGTAGCGTCACAATGACTGGGTTTCCCAAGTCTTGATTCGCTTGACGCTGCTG: 68.7 a.u.
GCCGGATCCCGGAATAGCGTGATGGTCTACTCCTGTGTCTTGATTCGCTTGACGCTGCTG: 60.4 a.u.
TCACTAAATTAGCTGCATGTGCGTTAAATCCACCAAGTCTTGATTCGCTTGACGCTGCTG: 157 a.u.
GTCTACAGCGTACTTCACGTTGTTCTCCTGAGGCAGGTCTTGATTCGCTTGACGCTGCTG: 79.5 a.u.
AGGTTAGGTGTCCATCACGTGCTAAAACCAGCGACTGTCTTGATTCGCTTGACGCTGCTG: 6170 a.u.
AAATTACTAAGTTGTAAGGTGGGTGACGCCGTATGAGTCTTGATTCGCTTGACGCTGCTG: 64.8 a.u.

Block 2 — method: EMSA with sequencing; molecule type: double-stranded DNA, one strand shown; matrix: in vitro; concentration: 10 and 20 nM; baseline: negative control set to 0; reading: higher = stronger binding; measurement: normalised bound fraction
Target: Hepatocyte nuclear factor 3-alpha (Foxa1, Mus musculus, UniProt P35582, residues 1-468, full length assumed)
Sequence of UniProt P35582 (whole entry, looked up): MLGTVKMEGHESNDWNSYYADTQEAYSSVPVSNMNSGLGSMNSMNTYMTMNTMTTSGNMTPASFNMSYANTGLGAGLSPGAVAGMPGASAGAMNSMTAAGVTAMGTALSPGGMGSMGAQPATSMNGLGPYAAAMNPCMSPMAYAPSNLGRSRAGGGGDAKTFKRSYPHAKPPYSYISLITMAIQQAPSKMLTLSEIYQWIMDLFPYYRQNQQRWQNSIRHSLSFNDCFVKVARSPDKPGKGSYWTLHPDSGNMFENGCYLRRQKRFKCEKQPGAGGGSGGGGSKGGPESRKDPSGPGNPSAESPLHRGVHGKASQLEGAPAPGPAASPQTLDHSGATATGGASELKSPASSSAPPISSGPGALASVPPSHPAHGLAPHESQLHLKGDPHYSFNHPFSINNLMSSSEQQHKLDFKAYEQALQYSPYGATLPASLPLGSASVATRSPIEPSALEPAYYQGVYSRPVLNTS
Notes: whole designed probe, mean of two concentrations, ends assumed
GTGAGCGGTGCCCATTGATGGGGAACTATTTACTGACCTAAACTTGGCTGTAACAGCTCTTACTCCCTCAGAGGAGGTACATGAGAGTTAAATGAGGTAATGAATTGCGCAGCCATCTGTAATCTTGACGAGGCTTTGTAATCTGAACTGGGACAACACAAACATTCGCTAGAATAATTCTCCCACTCCTTGAAAGAGTACTCTTCCCTTACCCCACCTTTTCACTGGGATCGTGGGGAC: 0.111 ratio
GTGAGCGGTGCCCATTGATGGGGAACAACAGTAACATGGCAACAGCTTAAATAAATAAGACAGTACATTGTTTAAGAAACAACTAATGTTCTGAGGTTTCAGTGATAACAACCACAAAGTAAACATGCAAGGTGGTAAGAAATACCTGGCATGAATGCCTTTTGTTAAAAGTTGAACCACAAGTGCATTTTTTTTTACACTCTACTGAAGTATTTTTGTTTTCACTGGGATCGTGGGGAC: 0.486 ratio
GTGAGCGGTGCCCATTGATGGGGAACCATCTCGGCCTCCATAACTGCTGGGATTACAAGCATGAGCCACTATACCTGGCTGAAATTTTTTAACATACTAGTATTTGTGTAATTTAAAAAATAAACAGGCTGGGCACGGTGGCTCATGCCTGTAATCCCAGCACTTTGGGAGGCCGAGGCAGGTGGATCCTGAGGTCAAAAGATAGAGACCGTCCTGGCCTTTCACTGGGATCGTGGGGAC: 0.215 ratio
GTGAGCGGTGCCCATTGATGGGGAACACCAAATCTGAAAATAAGTTAATCCTTTCTGTGTGTTTGCTGCAATTAAACTATTTTCACAAACAATTTATACTGCTCTAAAGGTCTATGTTTGTTTACATAGGAAGTGTTTATTTTTCCAAGAAAGTAAATTTATTGATTTTCTCATATGTCTCACAGACGCAAAGAAAAAAAAAAGGTTTCTTGAATGGTATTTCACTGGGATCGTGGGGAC: 0.565 ratio
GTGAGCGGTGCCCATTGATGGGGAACAAATCTAAGAATATTTTGTTTCAGGCTAGAAAGATATCTCTTTACTTGACTTTTTTCAGACCATGTTGGCCATTGTCTAATTATTTAGTACAAAGTAATCTGAAATAGAGCAGAGTAGAGCTCATTCTCCCCAAGTTGAAGCTTATCACACTCCAATGTGTGCCCTCTTAAAGCATAAAGCATGTCTCACTTTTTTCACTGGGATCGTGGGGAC: -0.0252 ratio
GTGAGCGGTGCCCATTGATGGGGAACATCTTCCCCCTCTTCCTTGCCCCACCAGCTCACCTACGGGGGTTATTTGCAGATAGGAAAATAAATAAAGCCGGCATTCGTTAACCCTCTTCACGCGCATACTGCTGTTTGCTCTGCATGAATCATGGTCCTTACGCGACGCCAGGCTCCGGGAGAGCAAAGCACCGTGTCAGGCGCATGATCCGGGGTGGCCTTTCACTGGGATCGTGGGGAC: 0.357 ratio

Block 3 — method: protein-binding microarray; molecule type: double-stranded DNA, one strand shown; matrix: in vitro; concentration: 250 nM; notes: 60-bp whole probe; together with: salmon DNA 0.4 mg/ml; baseline: random background probes; reading: higher = stronger binding; measurement: log fluorescence; all sequences stand within: GCCTAGCAC … GTCTTGATTCGCTTGACGCTGCTG
Target: Interferon regulatory factor 7, full length, phosphomimetic (IRF7, Homo sapiens, UniProt Q92985, residues 1-503, S101K/S471D/S472D/S475D/S476D/S477D/S483D/S484D/S487D)
Sequence of UniProt Q92985 (whole entry, unmodified, looked up): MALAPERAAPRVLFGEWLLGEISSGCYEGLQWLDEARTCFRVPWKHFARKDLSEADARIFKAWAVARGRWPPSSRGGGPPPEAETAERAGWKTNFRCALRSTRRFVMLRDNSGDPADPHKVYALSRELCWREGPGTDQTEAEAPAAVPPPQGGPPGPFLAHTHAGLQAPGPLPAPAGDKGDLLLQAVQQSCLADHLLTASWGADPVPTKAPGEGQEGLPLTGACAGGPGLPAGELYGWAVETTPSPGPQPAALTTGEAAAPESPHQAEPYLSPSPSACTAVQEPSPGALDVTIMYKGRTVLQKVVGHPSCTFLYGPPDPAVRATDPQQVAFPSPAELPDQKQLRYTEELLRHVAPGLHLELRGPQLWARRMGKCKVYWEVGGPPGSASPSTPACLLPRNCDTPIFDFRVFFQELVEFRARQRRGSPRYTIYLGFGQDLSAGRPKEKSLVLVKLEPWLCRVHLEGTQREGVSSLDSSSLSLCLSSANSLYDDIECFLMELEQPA
GACGGACTGGCACTGGGGACGTGCTAG: -0.811 z-score
TCAATTTTGTTTTTCATACTGTGCTAG: 1.36 z-score
TCATCTTTATGCACTCTTACTGTGCTA: 0.214 z-score
GACGATTTGAGACTGGAGACGTGCTAG: 0.00223 z-score
GACTTTCTTTCAAATGAAGGAGTGCTA: 1.51 z-score
GACGGACTGGGATATCGGGACGTGCTA: -0.556 z-score
TCACTTCTGGTGCTCATACTGTGCTAG: 0.295 z-score
GACAGTCTCCTTCTCCTGACGTGCTAG: 0.144 z-score
GACGACCTCAGTTTCGAGACGTGCTAG: 3.98 z-score
TCATTTTTTTTATTTATACTGTGCTAG: 1.31 z-score
GACGAACGGAGTCTCGAGACGTGCTAG: 0.176 z-score
TCATGTTTGATCTTGATACTGTGCTAG: 0.144 z-score
GACGGTTTCGGGTTACGGGACGTGCTA: 12.8 z-score
TGTGTTTTCATTTTATGACAGTGCTAG: 3.4 z-score
TTATATTTCAGTCTCGATTAGTGCTAG: 2.61 z-score
GACGTACTGGGTCTCGGGACGTGCTAG: 0.144 z-score
TCACATTCCCCATTGTGACTGTGCTAG: 1.97 z-score
TTAGGTTTCGGTTTCTGTTAGTGCTAG: 15.2 z-score
GACGATATCGGGTTTCGAAACGTGCTA: 4.84 z-score
TCAGATTTCGGGTTTCGATTAGTGCTA: 7.97 z-score
TCATATATTTTAATCACACTGTGCTAG: 0.785 z-score
TCACTTTTCATTTTCTTACTGTGCTAG: 1.95 z-score
TCAATTTTGGTTTTCCTACTGTGCTAG: 1.08 z-score

Block 4 — method: RNA Bind-n-Seq; molecule type: RNA; matrix: in vitro; concentration: 365 nM; baseline: no-protein control; reading: higher = stronger binding; measurement: RBNS enrichment (R)
Target: RNA binding protein fox-1 homolog 2, RRM domain, GST-SBP tag (RBFOX2, Homo sapiens, UniProt O43251-10, residues 100-194)
Notes: natural RNA segment, single round, ends assumed
Target sequence (chain): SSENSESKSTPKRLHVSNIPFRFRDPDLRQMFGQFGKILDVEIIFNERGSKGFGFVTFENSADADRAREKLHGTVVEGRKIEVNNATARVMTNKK
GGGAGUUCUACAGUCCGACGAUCACCCUUCUCUCUAGACUUGGGAAGCACUCCUUCCUAGAAGCCACACAUCACUCCAAGGCUCAGCUGGGCGCUGCUCAUCCCCAACUCUCAUAGUGACAUCACCUGUGGAUUGGAAUUCUCGGGUGCCAA: 0.362
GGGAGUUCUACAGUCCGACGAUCUGAACUAUGUUUUGGAAAGUUACAACUACUUUUACAUUAAGGAUGAGAAACUGGAGUGUUUUUGAUUUCAUGGUAAAAGUUUGUGUGUUUUACAUUUGAAUGUUCACAGUUGGAAUUCUCGGGUGCCAA: 0.626
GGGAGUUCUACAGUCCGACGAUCCAGUACGUUCUCAGGAUGCAUCCAGGGGUUCAUUUUCAUGAGCCUGUCCAGGUUAGUUUACUCCUGACCACUAAUAGCAUUGUCAUUUGGGCUUUCUGUUGAAUGAAUCAUGGAAUUCUCGGGUGCCAA: 0.364
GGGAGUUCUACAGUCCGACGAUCGCAUGAAACCAACCGAGUUGAUUUUUAUCUGAGCGCUUGUAGAGGGCUUCGUGUGCCUGUUGGACCAUUAGUUCUUUUAACUGUAUAUGCAAUAACAAGGUUUUAAAAGAUGGAAUUCUCGGGUGCCAA: 1.88
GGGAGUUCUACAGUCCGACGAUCUAGUCUGCUGCUUUCCUGGGUGGAUGAACCUCUUUAUUAUGGUAACUUCUGUGCUGCUUUGCCCCUAGCCAAGGCUCUCCUUCCCCAAGAGGUUAGCUUUGGCAUUGGAAUGGAAUUCUCGGGUGCCAA: 0.369
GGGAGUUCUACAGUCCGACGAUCACACUUGCAAAGACAGGGCUCUGACUCUGAUCCCUCCCAGGGAGCCUCCGACACCCAUCCCACUCCCAACCACCAAGACCCUGGGUUAGGGAAGAAGUUGUAUCUUAAGUUGGAAUUCUCGGGUGCCAA: 0.443
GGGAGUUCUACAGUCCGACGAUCUGGCCCUGGCAGCCCCGCCAUCCCCAUCCCCUGCCACGUGCUGCUCCCUCCAUCUGGUCCCUGCCCCUCAGCCAGCGGAGGAGCCCGCUGGGCCCUUCCCUGCCCGUCCCUGGAAUUCUCGGGUGCCAA: 0.335
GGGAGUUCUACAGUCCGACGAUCCUAAACAGUAAUUAAUUUAUAUUUGUGAAAAAUGCCACUGUCCUGGUGAUUUCUGAUGUAAAUAAUGUUGUUUAUAUAGUAUGUAUUAAAUUUUCCUACAUUGUAAAACUUGGAAUUCUCGGGUGCCAA: 0.344
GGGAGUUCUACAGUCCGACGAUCAAGGCACAAAUUAUUUCAAAGGAGUUGCUCUAAAAACAGAUUAUUUCCCGGAAAAAAAAAAAUGCAAUAAUGGGAAUGAUUUGGGGCUUUUAUUUUUUAUUUUAAAAGAAUGGAAUUCUCGGGUGCCAA: 0.711
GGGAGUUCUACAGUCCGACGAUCCAGCUAUGCCCAGUGCUGCAUGGGACCCAUGUCUCCUGGGACAGAGGCCAUCUCUCUUCCAGAGAGAGGCAGCAUUGGCCCACAGGAUAAGCCUCAGGCCCUGGGAAACCUGGAAUUCUCGGGUGCCAA: 0.311
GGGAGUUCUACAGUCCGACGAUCAUGGGCUUGUGACCCUAAACUUGCAGGCAAGGUUAGCUGCUUUAGUAAGUAGAAUUUUGUGGUCUUUUUGUUUUUUACAUAGUACCAAGCCUUGAUAAUUAUGAAUUUUUUGGAAUUCUCGGGUGCCAA: 0.661
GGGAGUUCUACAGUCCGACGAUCCCACGUGUAAGUCUCCAUUGCAGAAUUGUCGUGCUUUGAGAAAACACCUGAGGCAGUGUGGGAGUUGAACGACCCUGCUGUCCUUUUUAACCUGUGUUGUCCUAGACCCUUGGAAUUCUCGGGUGCCAA: 0.257
